Experimental data of several laboratories.
Parts stem from different laboratories: compare values within a part only.

Study 1 — technique: protein-binding microarray; form: double-stranded DNA, one strand shown; matrix: in vitro; tested at: 940 nM top; notes: 60-bp whole probe; added: salmon DNA 0.4 mg/ml; relative to: random background probes; reading: higher = stronger binding; quantity: fitted relative affinity
Target: Interferon regulatory factor 5, full length, phosphomimetic (IRF5, Homo sapiens, UniProt Q13568-2, residues 1-514, S451D/S453D/S456D/S462D)
GCCTAGCACCACCCTTGGAAGTATGACTCTGTGCTAGTCTTGATTCGCTTGACGCTGCTG: -0.105 z-score
GCCTAGCACTAAGATATCAGTATCGATTAGTGCTAGGTCTTGATTCGCTTGACGCTGCTG: 5.18 z-score
GCCTAGCACGACGAGCTCAGTCTCGAGACGTGCTAGGTCTTGATTCGCTTGACGCTGCTG: 0.765 z-score

Study 2 — technique: protein binding microarray; form: double-stranded DNA, one strand shown; matrix: in vitro; tested at: not given; relative to: not given; reading: higher = stronger binding; quantity: E-score
Target: Histone acetyltransferase KAT6A, winged helix 2, GST fusion (KAT6A, Homo sapiens, UniProt Q92794, residues 85-181)
Notes: 8-mer, flanks averaged, mean of 2 arrays, mostly near background
Residues (chain): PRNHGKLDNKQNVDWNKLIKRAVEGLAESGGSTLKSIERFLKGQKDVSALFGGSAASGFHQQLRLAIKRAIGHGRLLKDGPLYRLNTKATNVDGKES
CCCGCCTC: 0.116
CAATGGTC: -0.0993
CGTTAACG: 0.00181
AGAGACTG: -0.138
ACTTATAG: -0.194

Study 3 — technique: protein-binding microarray; form: double-stranded DNA, one strand shown; matrix: in vitro; tested at: not given; reading: higher = stronger binding; quantity: E-score
Target: Protein max, full length (MAX, Homo sapiens, UniProt P61244-2, residues 1-151)
Notes: k-mer, scored over probes, only values ≥0.25
ACAGTGTG: 0.262
AAACATGC: 0.36
CACGGTGA: 0.309
ACATGAGG: 0.417
CATCACAC: 0.298

Mixed results
PhoQ, residues 284 288 289 292 302 303 SQSLSM — fold induction (PhoP, residues 12 14 15 18 19 NHFIF (Escherichia coli, UniProt P23836); Sort-seq, item: YFP reporter; E. coli; PhoQ-PhoP variant library, added: 10 µM Mg2+; relative to: high Mg2+ state, higher = stronger signaling): 2.13

A few entries again (mixed results):
PhoQ, residues 284 288 289 292 302 303 SQSLSM — fold induction (PhoP, residues 12 14 15 18 19 NHFIF (Escherichia coli, UniProt P23836); Sort-seq, item: YFP reporter; E. coli; PhoQ-PhoP variant library, added: 10 µM Mg2+; relative to: high Mg2+ state, higher = stronger signaling): 2.13
